# Published values collected from several papers.
# Every numbered part comes from another study and shows a few of its results, in no order. Substitutions count along the parent as printed.

# Sample 1 — target: CCNA2, cyclin fold, Cln2 fusion (human); technique: yeast growth competition, sequencing; sample: yeast; notes: strong parent motif; baseline: not given; direction: higher = stronger binding
# Starting sequence: BRCA2 docking peptide (human); PSIKRNLLNEFDR
Variant,normalised enrichment score
PSIKRNLLKEFDR [N9K],5.77
PSIKRNLLGEFDR [N9G],5.3
PSIKRNLLNEFAR [D12A],5.54
PSIKRNLMNEFDR [L8M],5.98
PCIKRNLLNEFDR [S2C],4.36
PSIKFNLLNEFDR [R5F],-0.0347
PSPKRNLLNEFDR [I3P],3.23
PSIIRNLLNEFDR [K4I],2.62
PSIKRNLLWEFDR [N9W],6.19
PSHKRNLLNEFDR [I3H],4.01
PSIKRNLLTEFDR [N9T],4.98
PSIKRNLLNEFVR [D12V],4.9
PSIKRNLLNEFYR [D12Y],4.44
PSIKRNLLNQFDR [E10Q],2.38
PSIKRNLLNEFDP [R13P],4.44
PSIKANALNEFDR [R5A L7A],-0.301
PSIKRNLLNDFDR [E10D],5.81
PSIKRNLLNNFDR [E10N],1.66
PSIKRNLLNEFPR [D12P],3.93
PSIKRNNLNEFDR [L7N],-0.88
PSIKRPLLNEFDR [N6P],1.84
PSIKRNLLEEFDR [N9E],5.66
PSYKRNLLNEFDR [I3Y],5.5
PSIKRNRLNEFDR [L7R],0.474
PSIKGNLLNEFDR [R5G],-0.961

# Sample 2 — technique: protein binding microarray; form: double-stranded DNA, one strand shown; sample: in vitro; concentration: not given; baseline: not given; direction: higher = stronger binding
# Target: Histone acetyltransferase KAT6A, both winged helices, GST fusion (KAT6A, Homo sapiens, UniProt Q92794, residues 1-181)
# Notes: 8-mer, flanks averaged, mean of 2 arrays, mostly near background
# Residues (chain): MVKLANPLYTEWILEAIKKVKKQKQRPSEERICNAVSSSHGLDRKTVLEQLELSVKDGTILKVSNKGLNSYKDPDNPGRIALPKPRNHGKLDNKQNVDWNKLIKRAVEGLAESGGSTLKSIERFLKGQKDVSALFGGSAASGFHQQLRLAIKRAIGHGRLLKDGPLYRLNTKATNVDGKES
Oligonucleotide,E-score
GAGGTACC,-0.0171
ATCCCGCC,0.267
CGTAGTCC,0.0343
CCGGCTCG,0.246
ACCTTGCT,-0.282
GCCAACAC,0.0924
CCCACCTC,-0.178
ACTCGGCA,0.115
TGAGCACA,-0.165
GGCCTGGA,-0.132
CCGTCGCA,0.322
GGCCAGCC,-0.0783
TGGCTCAA,-0.0923
AGCGGCAG,0.266
CCGAAAAA,-0.0416
CTCGTTAC,-0.224

# Sample 3 — technique: aptamer microarray, sandwich; form: DNA with 2'F-ANA; sample: in vitro; concentration: 200 nM; added: Cy3 exosite-II aptamer, 400 nM; direction: higher = stronger binding; oligonucleotide: GGTTGGTGTGGTTGG
# Target: Prothrombin, mature alpha-thrombin (F2, Homo sapiens, UniProt P00734)
# Notes: whole 15-mer aptamer, many near background
Modification,mean fluorescence intensity [a.u.]
2'F-ANA at 3 5 6 9 11 12 13 14,55.7
2'F-ANA at 1 2 3 4 9 10 12 13 15,66.8
2'F-ANA at 3 4 5 6 13 15,103
2'F-ANA at 1 2 3 8 10 12,119
2'F-ANA at 2 3 4 5 6 8 9 12 13 14 15,50.4
2'F-ANA at 2 5 7 12 15,156
2'F-ANA at 3 4 5 8 10 11 14,86.6
2'F-ANA at 1 2 3 6 8 10 11 12 13 15,77.9
2'F-ANA at 3 4 5 6 8 10,94.7
2'F-ANA at 2 3 6 7 8 9 10 12 13 14 15,255
2'F-ANA at 4 6 8,387
2'F-ANA at 1 2 6 8 9 11 12 14,68.4
2'F-ANA at 3 4 6 8 10 11 12 14 15,140
2'F-ANA at 1 4 5 6 8 10 14,49.3
2'F-ANA at 1 3 4 5 7 8 10 11 12 13 14 15,122
2'F-ANA at 5 7 8 9 10 14 15,47.7
2'F-ANA at 1 2 3 10 11 12,88.3
2'F-ANA at 1 2 3 4 5 8 10 11 12,50.8
2'F-ANA at 1 2 3 4 5 7 10 11 12 14,67.5
2'F-ANA at 2 3 6 10 13 14 15,261
2'F-ANA at 1 2 3 5 6 7 8 9 10 11 13 15,52.7
2'F-ANA at 3 4 6 8 9 11 14 15,219

# Sample 4 — technique: universal PBM; form: double-stranded DNA, one strand shown; sample: in vitro; concentration: 600 nM; direction: higher = stronger binding
# Target: Sal-like protein 4, full length isoform A (SALL4, Homo sapiens, UniProt Q9UJQ4, residues 1-1053)
# Sequence of UniProt Q9UJQ4 (whole entry, looked up): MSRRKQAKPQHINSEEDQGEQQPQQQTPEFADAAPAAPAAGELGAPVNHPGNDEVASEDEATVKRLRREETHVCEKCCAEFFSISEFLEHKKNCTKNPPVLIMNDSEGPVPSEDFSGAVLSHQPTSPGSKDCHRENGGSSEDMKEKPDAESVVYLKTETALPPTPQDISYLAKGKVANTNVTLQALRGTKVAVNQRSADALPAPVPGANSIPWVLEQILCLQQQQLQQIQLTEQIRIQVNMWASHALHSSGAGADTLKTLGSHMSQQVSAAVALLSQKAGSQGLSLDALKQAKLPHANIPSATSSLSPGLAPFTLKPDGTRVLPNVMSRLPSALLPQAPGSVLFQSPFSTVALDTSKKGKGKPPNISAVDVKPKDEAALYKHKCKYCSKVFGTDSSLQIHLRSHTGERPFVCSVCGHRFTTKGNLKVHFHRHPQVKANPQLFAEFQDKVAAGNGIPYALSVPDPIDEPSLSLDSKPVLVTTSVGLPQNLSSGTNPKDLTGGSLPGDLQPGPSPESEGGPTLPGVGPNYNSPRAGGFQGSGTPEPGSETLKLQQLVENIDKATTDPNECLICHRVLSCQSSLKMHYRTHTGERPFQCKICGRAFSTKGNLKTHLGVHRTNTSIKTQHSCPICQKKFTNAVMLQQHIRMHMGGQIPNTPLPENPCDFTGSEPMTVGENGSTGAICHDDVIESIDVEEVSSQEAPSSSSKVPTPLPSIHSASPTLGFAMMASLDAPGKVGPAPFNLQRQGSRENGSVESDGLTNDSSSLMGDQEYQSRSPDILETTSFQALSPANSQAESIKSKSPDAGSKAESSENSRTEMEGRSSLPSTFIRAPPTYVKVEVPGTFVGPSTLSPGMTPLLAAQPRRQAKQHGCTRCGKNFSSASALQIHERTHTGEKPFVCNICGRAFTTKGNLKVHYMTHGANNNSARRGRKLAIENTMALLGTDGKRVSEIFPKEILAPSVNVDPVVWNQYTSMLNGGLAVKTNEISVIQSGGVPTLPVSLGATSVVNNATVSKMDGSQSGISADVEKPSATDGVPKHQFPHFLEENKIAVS
# Notes: 8-mer, flanks averaged, mean of replicates
Oligonucleotide,E-score
AACAGCGG,-0.0762
CTCGAGTA,0.0167
AGGCAATC,-0.0406
CTCATTTA,0.171
AAGCCCGA,-0.165
CAAAACCC,0.00703
CATGTGTC,-0.121
AACCTGCA,-0.0937
AGAGCCAA,0.102
TATTTTCA,0.29
AGGCGGGA,-0.2
ATTTACCA,0.24
ATAAAGAC,0.166
CTATTAAA,0.283
ATCTCTCG,-0.0242
ACACGCGC,-0.228
CGCGTGAC,-0.154
AGATCTAC,0.129
TACACAAA,0.321
GGCAGCAA,-0.168

# Sample 5 — technique: DHFR PCA, deep sequencing; sample: yeast; added: (+)-ABA 17 µM; baseline: wild-type fitted maximum; direction: higher = stronger binding
# Target: ABI1, truncated, D143A, DHFR fusion (Arabidopsis thaliana)
# Notes: methotrexate growth selection, single substitutions
# Starting sequence: PYL1, truncated, DHFR fusion (Arabidopsis thaliana); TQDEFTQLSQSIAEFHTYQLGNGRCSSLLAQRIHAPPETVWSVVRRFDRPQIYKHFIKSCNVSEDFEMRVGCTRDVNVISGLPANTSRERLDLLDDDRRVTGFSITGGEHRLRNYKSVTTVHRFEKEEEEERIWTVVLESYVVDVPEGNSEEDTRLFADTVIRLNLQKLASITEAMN
Variant,relative binding score [%]
Y18W,84.1
S26L,4.16
L20V,90.1
D153W,-1.62
S87M,-1.56
R90F,-11.1
E129K,87.9
T17H,68.5
P36H,80.5
A84F,45.5
R163L,22.9
T120C,1.82
R123D,73.9
I133R,81.3
L20T,85.1
A35H,-4.76
S117L,1.84
R45G,8.58

# For quick reference, copied from above (sample 4):
Oligonucleotide,E-score
AGGCGGGA,-0.2
ATTTACCA,0.24
ATAAAGAC,0.166
CTATTAAA,0.283
ATCTCTCG,-0.0242
ACACGCGC,-0.228
